# Assay results of several laboratories.
# Parts stem from different laboratories: compare values within a part only.

# Sample 1 — method: RNA Bind-n-Seq; form: RNA; matrix: in vitro; concentration: 1 µM; notes: whole 134-nt RNA, ends assumed; together with: 150 mM KCl; reference: input library; direction: higher = stronger binding
# Target: Ras GTPase-activating protein-binding protein 1, C-terminal RGG region (G3BP1, Homo sapiens, UniProt Q13283)
# UniProt Q13283, sequence (whole entry, looked up): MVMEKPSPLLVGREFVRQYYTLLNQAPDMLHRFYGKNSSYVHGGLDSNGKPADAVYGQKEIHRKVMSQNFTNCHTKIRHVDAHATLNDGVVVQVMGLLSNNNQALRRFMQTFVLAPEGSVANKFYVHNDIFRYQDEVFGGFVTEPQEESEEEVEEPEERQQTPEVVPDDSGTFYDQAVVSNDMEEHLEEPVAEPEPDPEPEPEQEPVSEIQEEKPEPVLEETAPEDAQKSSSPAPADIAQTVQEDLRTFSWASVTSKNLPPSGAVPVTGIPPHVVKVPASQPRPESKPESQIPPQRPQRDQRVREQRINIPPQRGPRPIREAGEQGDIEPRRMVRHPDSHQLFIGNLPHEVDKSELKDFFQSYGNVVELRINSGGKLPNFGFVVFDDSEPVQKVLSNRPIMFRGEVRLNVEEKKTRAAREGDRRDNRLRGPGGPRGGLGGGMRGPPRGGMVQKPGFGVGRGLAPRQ
Strand,log2 enrichment
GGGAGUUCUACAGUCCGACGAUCUCCUGUGCUACACAUCGUAUGUACCGAAUCGGGGUUUGGGGAAAAAAAGGGGUUUGGGGAAAGUAUUAUGUUACGCCGUUCGGAUCUGCAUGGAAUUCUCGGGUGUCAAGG,1.95
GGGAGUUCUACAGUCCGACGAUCGUCCUGUGCUACACAUCGUAUGUACCGAAUCAAACCCCCAAAUUUUUUUAAAUUUAAAAAAGUAUUAUGUUACGCCGUUCGGAUCUGCACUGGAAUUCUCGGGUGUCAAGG,-0.622
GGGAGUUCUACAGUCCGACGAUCCCUCAAGUCCUGUGCUACACAUCGUAUGUACCGAAUCGGCCGGGCCGGCCGGGAAAGUAUUAUGUUACGCCGUUCGGAUCUGCACUUCCAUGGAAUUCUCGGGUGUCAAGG,-1.21
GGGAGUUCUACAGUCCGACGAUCUAACUUUAGAGGAGGAUCUGAUGGAUAUGGCAGUGGACGCGGAUUUGGGGAUGGCUAUAAUGGGUAUGGAGGAGGACCUGGAGGUGGCAAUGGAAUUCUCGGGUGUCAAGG,-0.937
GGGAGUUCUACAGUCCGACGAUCACCAUGCAGAAAGGCAUCUUUGGGAAGUGGGGCAAGGGGGGGAUAGGGAGGGGGGUAACACUUUGGGAACAGGUGGUCCCAGGUCGUUUCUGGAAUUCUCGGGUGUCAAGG,-0.812
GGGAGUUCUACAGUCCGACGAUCUGCCUGCUCCGGGCCCCGUGCUGGCGCCUACGCACCUGCAGACAGAGCUGGUGCUGAGGUGCCAGAAGGAGACCGACUGUGACCUCUGUCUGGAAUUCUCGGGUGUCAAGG,-1.19
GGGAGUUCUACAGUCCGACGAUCUGGCCCUGGUGGCAUGCGGGGAGGAAGAGGUGACCUCAUGGAUCGUGGUGGUCCCGGUGGAAUGUUCAGAGGUGGCCGUGGUGGAGACAGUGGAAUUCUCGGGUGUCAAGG,1.79
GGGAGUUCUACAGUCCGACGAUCACCAUGCAGGUGGGCAUCUAUGGGAAGUGGGGCAAGGGGGGGAUAGGGAGGGGGGUAACACUUUGGGAACAGGUGGUCCCAGGUCGUUUCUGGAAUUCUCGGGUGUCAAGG,-1.06
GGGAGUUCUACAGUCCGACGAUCCACAGACAACACGCACCCACACAGACACAGAGAGAAGGGGUUGGGAUGGGGACAGGGUGCACAGCAGGGCGGGGUAGGACCCCAGCCCCUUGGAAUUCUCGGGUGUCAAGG,-0.173

# Sample 2 — method: universal PBM; form: double-stranded DNA, one strand shown; matrix: in vitro; concentration: not given; direction: higher = stronger binding
# Target: Sal-like protein 4, full length isoform B (SALL4, Homo sapiens, UniProt Q9UJQ4-2, residues 1-616)
# Notes: 8-mer, flanks averaged, mean of replicates
Strand,E-score
CCCCAGGC,-0.318
AGCATCCG,-0.301
AAGCGTAA,0.156
AGATTTAC,0.189
AGACATAA,0.241
AAGCGTTC,-0.086
CCGCTACG,-0.32
ACAGACAC,-0.0155
AGCTTTCG,-0.18
AAATGCGC,-0.0854
CATTCGAC,0.04
ACACATGT,0.141
GAATGGAA,-0.0139
AAGATCTC,0.0425
ACCGGAGT,-0.246
ATCCTAAC,0.084
GAGCACCA,-0.0631
GGCCGTTA,-0.0127
CCCCAGCG,-0.3
GAGGCGCA,-0.191
ACCACGTC,-0.0991
CCTCTACA,-0.00057
AAGTAAGG,0.128
AAGTAGGG,0.0648
CTACCATA,0.141

# Sample 3 — method: protein binding microarray; form: double-stranded DNA, one strand shown; matrix: in vitro; concentration: not given; reference: not given; direction: higher = stronger binding
# Target: Histone acetyltransferase KAT6A, both winged helices, GST fusion (KAT6A, Homo sapiens, UniProt Q92794, residues 1-181)
# Notes: 8-mer, flanks averaged, mean of 2 arrays, mostly near background
# Residues (chain): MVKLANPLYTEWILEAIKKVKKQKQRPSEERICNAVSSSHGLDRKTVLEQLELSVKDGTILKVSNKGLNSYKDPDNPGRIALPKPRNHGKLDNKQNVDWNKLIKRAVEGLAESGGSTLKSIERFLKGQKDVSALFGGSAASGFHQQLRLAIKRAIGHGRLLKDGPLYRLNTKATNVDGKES
Strand,E-score
GTACGAAA,-0.0574
CTACAGAA,-0.132
AAAGCTCA,-0.189
ATTAGGCA,-0.1
ACAGGCGG,0.154
GGTGTTGA,-0.0546
AATCTTCA,-0.075
ATCGGGAC,0.0643
AAGTGACT,-0.0993
ATGTAGAG,-0.209
CGCCCGAA,0.0556
AGCTGAGG,-0.265
TAGCGAGA,0.0491
CCCTTCCA,-0.101
AGGGTTAA,-0.167
AATTGAGG,-0.21

# Sample 4 — method: protein-binding microarray; form: double-stranded DNA, one strand shown; matrix: in vitro; concentration: 250 nM; notes: 60-bp whole probe; together with: salmon DNA 0.4 mg/ml; reference: random background probes; direction: higher = stronger binding; constant ends, left off below: GCCTAGCAC … GTCTTGATTCGCTTGACGCTGCTG
# Target: Interferon regulatory factor 5, full length, phosphomimetic (IRF5, Homo sapiens, UniProt Q13568-2, residues 1-514, K96S/S451D/S453D/S456D/S462D)
Strand,log fluorescence [z-score]
TAAGGTTTCGGTCTCGGTTAGTGCTAG,9.85
TGCTTTCTCTTTCATTGCTGCGTGCTA,6.72
CACGGTTTCGGGACTGGGGACGTGCTA,4.04
GACGATTTCGGTTTCGAGACGTGCTAG,9.01
GACGGTTTCGACTTTGGGGACGTGCTA,5.23
GACGGTCTCCTACTGCTGCCGTGCTAG,-0.699
CTATATTAGGGAAGTGTGTTGTGCTAG,-0.21
TTAGAAGTGAGTCTCGATTAGTGCTAG,0.672
TCAGGTTTCACTTTAAAACTGTGCTAG,5.8
TTCGCTTTCTTTAACTCATTGTGCTAG,2.35
GACGGACTGGGTCTCGGGACGTGCTAG,-0.756
GACGGGCTCGGTTTCGGGACGTGCTAG,2.18
TTAGGACTGGGACTGGATTAGTGCTAG,-0.436
TTTTGCTTTCATTTATTTACGTGCTAG,8.58
AACGAACTGGGGTTTCGAGACGTGCTA,1.33
TGAGAACTGGGGTATCGATTAGTGCTA,2.05
TCAGTTTTAAATAGGGCACTGTGCTAG,0.0818
GTAGAAAATTCATGTTATAAGTGCTAG,0.51
TCATTTCTTTACTTCACACTGTGCTAG,1.31

# Sample 5 — method: RNA Bind-n-Seq; form: RNA; matrix: in vitro; concentration: 365 nM; reference: no-protein control; direction: higher = stronger binding
# Target: RNA binding protein fox-1 homolog 2, RRM domain, GST-SBP tag (RBFOX2, Homo sapiens, UniProt O43251-10, residues 100-194)
# Notes: natural RNA segment, single round, ends assumed
# Construct (chain): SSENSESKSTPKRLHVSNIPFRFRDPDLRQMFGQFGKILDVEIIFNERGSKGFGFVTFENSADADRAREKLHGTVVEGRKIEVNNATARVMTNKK
Strand,RBNS enrichment (R)
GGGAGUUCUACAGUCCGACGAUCCGAGGCAGGCCUGCAGGGCCUGGGCUACACCAUCCUGCCAGUGUCUCCCUCUCAGUGUCUCCCUCUUGGAUCUGUAGAUCUUCCCUUUGUGUCCUGGCCAGCCCCCAAAUUGGAAUUCUCGGGUGCCAA,0.703
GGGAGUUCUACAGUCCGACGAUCCUCGGAGAAGGAAGCAGAGGGUGUAAUGACUGGCACACCUGGACAGCUUUUCUCCAUCCGCAGACAGCCCUGUUCAGAGAGUACCGAGCACCAGCCCUGUGCGGCUUCCUUGGAAUUCUCGGGUGCCAA,0.633
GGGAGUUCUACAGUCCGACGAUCGAGGAAAGAGAAAACUCUGGGGUCAGGGAGAGACCCUACCCCCACCUAAUUAUCCAGCAUAUAUGUAAGAAACAUAGCAGCGAUGGUAUUCGAUCUGUGCCAUGACUCUUUGGAAUUCUCGGGUGCCAA,0.545
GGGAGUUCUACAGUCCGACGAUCUGCCCCACCCAAGCCCAAACUUGGUUUCUGUGAGAAUAGUGGAGGAAGGUGAGAUGGCCAGUUUGAAGCCUGUGCCUCCCAGCUUAAAUCCUAGCAGGAGAGAGGCUCUGUGGAAUUCUCGGGUGCCAA,0.276
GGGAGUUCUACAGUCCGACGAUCAAAUCAAAUAGAAUCUUAUAUCUGUAUGUUAAAAUAGAGCACUUACCUGAAGUCAGUGGCCUGGAUCAUAGCCCUGGAUCAUUUCCCAGUCUGUCCUGUGCUGUGUGACCUGGAAUUCUCGGGUGCCAA,0.923
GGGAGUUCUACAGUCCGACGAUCGGUGCACCUCCCUUUUCAGGCACUCUGAGUGUCCUUCCCACCCAUGACAAGGCAACCACAGAAGUCAGAACAAUCAGGCUUGAGUGGGUGGCCAGGUCAGCUACUGCCCUUGGAAUUCUCGGGUGCCAA,0.25
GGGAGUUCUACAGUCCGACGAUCCCUCAAAUCAGUGAUAAUUGGUUUGACUGUACCAUGGUUUGAUAUGUAGUUGGCACCAUGGUAUCAUAUAUUAAAACAAUAAUGCAAUUAGAAUUUGGGAGAAGCAAAUAUGGAAUUCUCGGGUGCCAA,0.974
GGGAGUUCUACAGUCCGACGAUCUGCCCCACCCCAAGCGAACGGUAAGAAGGCCUCUCUUAAGAAGGGGAGACAGAUGGCCCUAACUACUCAGUGACAGAGGCAGUUACUGUGAGAGACUUGUAGGAAUUUUUUGGAAUUCUCGGGUGCCAA,0.701

# For quick reference, copied from above (sample 3):
Strand,E-score
GGTGTTGA,-0.0546
AATCTTCA,-0.075
ATCGGGAC,0.0643
AAGTGACT,-0.0993
ATGTAGAG,-0.209
CGCCCGAA,0.0556
